Values quoted from earlier work, collected from citations in different studies.
Compare with care: the assays were run in different laboratories. ± marks the error that the study gave.
Si: Sucrase-isomaltase, intestinal (Si, Rattus norvegicus, UniProt P23739)
UniProt P23739, sequence (whole entry, looked up): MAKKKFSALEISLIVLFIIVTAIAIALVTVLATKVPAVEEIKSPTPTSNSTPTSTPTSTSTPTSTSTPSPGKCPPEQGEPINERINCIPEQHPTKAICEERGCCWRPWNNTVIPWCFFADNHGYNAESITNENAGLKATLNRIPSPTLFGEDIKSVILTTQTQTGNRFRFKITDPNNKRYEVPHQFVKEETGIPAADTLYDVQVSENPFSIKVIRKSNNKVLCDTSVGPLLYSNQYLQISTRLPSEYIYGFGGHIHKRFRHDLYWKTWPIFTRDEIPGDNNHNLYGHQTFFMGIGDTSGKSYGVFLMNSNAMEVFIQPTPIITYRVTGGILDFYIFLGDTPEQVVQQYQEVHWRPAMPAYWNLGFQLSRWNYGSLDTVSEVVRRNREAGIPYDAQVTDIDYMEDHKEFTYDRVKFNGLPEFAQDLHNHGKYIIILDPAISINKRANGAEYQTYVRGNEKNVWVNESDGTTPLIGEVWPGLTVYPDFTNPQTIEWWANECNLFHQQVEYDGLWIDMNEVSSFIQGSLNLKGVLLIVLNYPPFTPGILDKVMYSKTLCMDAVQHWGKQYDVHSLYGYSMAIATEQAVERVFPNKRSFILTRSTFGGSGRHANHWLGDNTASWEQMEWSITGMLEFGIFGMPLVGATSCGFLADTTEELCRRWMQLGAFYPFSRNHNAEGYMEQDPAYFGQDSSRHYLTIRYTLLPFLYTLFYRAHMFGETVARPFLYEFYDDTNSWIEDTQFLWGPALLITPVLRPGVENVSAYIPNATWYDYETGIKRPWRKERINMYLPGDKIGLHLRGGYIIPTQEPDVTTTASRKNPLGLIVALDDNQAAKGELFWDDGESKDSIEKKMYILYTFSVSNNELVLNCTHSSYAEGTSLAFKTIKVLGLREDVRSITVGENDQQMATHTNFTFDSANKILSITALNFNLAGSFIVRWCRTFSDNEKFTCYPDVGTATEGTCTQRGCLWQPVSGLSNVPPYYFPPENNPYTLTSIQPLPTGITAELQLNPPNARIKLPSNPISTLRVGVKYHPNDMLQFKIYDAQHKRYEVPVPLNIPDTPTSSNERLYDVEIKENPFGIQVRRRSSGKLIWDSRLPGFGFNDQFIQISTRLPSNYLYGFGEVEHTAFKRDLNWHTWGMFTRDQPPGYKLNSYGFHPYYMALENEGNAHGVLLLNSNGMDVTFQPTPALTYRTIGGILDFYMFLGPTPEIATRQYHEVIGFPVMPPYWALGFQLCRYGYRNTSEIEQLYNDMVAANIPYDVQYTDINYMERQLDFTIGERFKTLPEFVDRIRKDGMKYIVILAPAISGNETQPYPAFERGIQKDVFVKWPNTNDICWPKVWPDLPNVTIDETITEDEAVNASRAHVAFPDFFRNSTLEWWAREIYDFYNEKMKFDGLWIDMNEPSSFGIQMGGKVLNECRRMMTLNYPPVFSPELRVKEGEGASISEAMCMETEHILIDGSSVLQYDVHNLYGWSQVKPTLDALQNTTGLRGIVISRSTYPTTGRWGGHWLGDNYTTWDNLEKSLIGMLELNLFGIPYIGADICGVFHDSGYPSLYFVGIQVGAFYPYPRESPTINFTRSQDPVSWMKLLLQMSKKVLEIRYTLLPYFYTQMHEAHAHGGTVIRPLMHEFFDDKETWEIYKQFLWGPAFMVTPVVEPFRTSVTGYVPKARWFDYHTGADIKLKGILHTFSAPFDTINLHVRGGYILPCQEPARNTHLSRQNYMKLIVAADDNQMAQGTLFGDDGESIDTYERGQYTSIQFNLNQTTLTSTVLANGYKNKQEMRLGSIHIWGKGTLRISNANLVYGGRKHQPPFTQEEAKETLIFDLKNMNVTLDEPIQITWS
UniProt Q9NTG7, sequence (whole entry, looked up): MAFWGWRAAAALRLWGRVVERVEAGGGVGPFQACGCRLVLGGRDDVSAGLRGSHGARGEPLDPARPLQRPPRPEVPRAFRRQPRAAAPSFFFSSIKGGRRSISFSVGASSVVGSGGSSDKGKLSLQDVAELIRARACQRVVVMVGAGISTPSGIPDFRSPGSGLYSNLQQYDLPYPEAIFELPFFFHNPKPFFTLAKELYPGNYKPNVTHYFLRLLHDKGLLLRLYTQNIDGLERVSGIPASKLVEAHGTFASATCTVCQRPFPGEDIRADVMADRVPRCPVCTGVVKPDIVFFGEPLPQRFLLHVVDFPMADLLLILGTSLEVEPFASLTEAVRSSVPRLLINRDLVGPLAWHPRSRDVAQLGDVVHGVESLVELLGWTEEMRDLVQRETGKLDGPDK
UniProt P11511, sequence (whole entry, looked up): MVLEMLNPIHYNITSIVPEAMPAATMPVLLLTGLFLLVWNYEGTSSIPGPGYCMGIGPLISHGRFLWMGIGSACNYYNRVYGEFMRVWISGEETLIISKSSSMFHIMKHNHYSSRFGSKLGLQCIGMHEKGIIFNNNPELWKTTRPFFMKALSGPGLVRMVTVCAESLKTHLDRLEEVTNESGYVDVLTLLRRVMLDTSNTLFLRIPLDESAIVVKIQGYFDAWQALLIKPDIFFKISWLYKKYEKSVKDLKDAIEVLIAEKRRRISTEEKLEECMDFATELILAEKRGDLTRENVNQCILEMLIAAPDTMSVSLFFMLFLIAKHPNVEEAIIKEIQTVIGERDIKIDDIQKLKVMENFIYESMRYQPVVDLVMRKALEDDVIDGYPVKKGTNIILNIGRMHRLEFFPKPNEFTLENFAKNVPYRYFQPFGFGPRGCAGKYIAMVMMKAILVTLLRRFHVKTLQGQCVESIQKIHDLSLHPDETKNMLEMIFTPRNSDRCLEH
UniProt P21741, sequence (whole entry, looked up): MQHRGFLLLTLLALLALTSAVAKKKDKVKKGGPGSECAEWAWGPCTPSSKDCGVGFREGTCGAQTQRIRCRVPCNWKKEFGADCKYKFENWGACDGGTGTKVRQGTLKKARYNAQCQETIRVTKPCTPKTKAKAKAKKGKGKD
UniProt O14965, sequence (whole entry, looked up): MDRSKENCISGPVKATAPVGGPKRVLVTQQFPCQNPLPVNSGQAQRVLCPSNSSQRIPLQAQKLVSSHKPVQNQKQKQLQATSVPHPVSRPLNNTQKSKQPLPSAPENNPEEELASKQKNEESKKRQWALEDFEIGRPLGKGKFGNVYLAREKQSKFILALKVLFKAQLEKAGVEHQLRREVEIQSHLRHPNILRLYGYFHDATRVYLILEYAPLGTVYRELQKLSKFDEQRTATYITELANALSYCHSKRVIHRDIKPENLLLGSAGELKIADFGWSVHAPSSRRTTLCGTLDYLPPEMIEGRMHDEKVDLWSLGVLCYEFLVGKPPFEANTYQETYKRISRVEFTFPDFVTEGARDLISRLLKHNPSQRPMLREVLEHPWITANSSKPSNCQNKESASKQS
UniProt Q96LB1, sequence (whole entry, looked up): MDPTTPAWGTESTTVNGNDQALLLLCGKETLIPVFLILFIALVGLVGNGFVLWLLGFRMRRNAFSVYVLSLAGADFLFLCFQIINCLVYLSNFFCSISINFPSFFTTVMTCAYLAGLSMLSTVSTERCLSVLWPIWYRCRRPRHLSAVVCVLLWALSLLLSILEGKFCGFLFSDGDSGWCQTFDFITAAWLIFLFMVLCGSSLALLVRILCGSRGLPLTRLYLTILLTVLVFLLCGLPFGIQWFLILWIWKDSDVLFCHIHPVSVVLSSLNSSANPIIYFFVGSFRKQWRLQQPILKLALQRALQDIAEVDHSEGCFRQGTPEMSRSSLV

COc1ccc(C2=C(C#N)C(OCC(=O)N/N=C/c3ccccc3)NC(c3nc4ccccc4[nH]3)=C2)cc1 (stereo not shown) — IC50 (DNA gyrase; enzyme activity): 0.44 µM
CC1=C(Cn2c3ccc(Cl)c(=O)c-3nc3ccccc32)CCC(C)(C)C1 — IC50 (testosterone 5α-reductase; inhibitor): 10 µM
OC[C@H](OCc1ccccc1C(F)(F)F)[C@H](O)C[S@@+]1C[C@@H](O)[C@H](O)[C@H]1CO — IC50 (Si; isomaltase activity, inhibitor; rat intestinal disaccharidases): 0.19 µM
Cc1cc(C#N)cc(C)c1Oc1nc(NC2CCN(Cc3ccc(S(N)(=O)=O)cc3)CC2)nc2ccsc12 — IC50 (Gag-Pol polyprotein, reverse transcriptase (gag-pol, Human immunodeficiency virus 1, UniProt P03366); reverse transcriptase activity, inhibitor, refers to: biotin-dUTP incorporation): 0.3 ± 0.06 µM
O=C(Nc1ccc(Cl)c(C(F)(F)F)c1)Nc1ccc(Cl)c(C(F)(F)F)c1 — IC50 (Mas-related G-protein coupled receptor member X2 (MRGPRX2, Homo sapiens, UniProt Q96LB1); antagonist): 0.79 µM
O=C(O)CCc1ccc2c(c1)c(CCc1ccccc1)cn2-c1ccc(Oc2ccccc2)cc1 — IC50 (Cytosolic phospholipase A2 (Mus musculus, UniProt P47713); enzyme activity, inhibitor, radiometric): 0.02 µM
COc1ccc(O[C@@H]2O[C@H](COS(=O)(=O)O)[C@H](OS(=O)(=O)O)[C@H](O[C@@H]3O[C@H](C(=O)O)[C@@H](O[C@@H]4O[C@H](COS(=O)(=O)O)[C@H](OS(=O)(=O)O)[C@H](O[C@@H]5O[C@@H](C(=O)O)[C@@H](OS(=O)(=O)O)[C@H](O)[C@H]5OS(=O)(=O)O)[C@H]4NC(C)=O)[C@H](O)[C@H]3OS(=O)(=O)O)[C@H]2NC(C)=O)cc1 — IC50 (Midkine (Homo sapiens, UniProt P21741); binding to tetrasaccharide): 8 µM
NC(=S)N/N=C/c1ccc([N+](=O)[O-])cc1 — IC50 (tyrosinase; enzyme activity, inhibitor): 0.05 µM
O=c1oc2ccccc2c(O)c1C(c1ccc(OCc2cn(Cc3ccccc3Cl)nn2)cc1)c1c(O)c2ccccc2oc1=O — IC50 (alpha-glucosidase): 13 ± 1.5 µM
CCCCCCn1cc(O)c(=O)cc1/C=N/OCC — IC50 (tyrosinase; monophenolase activity, inhibitor): 2.04 µM
CO[C@H]1[C@@H](O)[C@H]2O[C@@H]1COP(=O)([O-])OP(=O)(O)OC[C@H]1O[C@H]([C@H](O)[C@@H]1O)[n+]1cnc3c(ncn32)c1N — IC50 (cADPR receptor, sea urchin; antagonist; sea urchin egg homogenate): 4.8 µM
C#CCCCC1(CCC(=O)N[C@@H](CCCCNC(=S)CCCCCCCCCCCCC)C(=O)N[C@@H](C)C(=O)N[C@@H](C)C(=O)OC)N=N1 — IC50 (NAD-dependent protein deacetylase sirtuin-3, mitochondrial (SIRT3, Homo sapiens, UniProt Q9NTG7); deacetylase activity, inhibitor, HPLC; together with: H3K9ac substrate): > 2000 µM
Fc1ccc(Nc2nc(-c3ccc(Cl)cc3)nc3ccc(Br)cc23)cc1 — IC50 (Epidermal growth factor receptor (EGFR, Homo sapiens, UniProt P00533)): 0.0377 µM
Cc1cc(Nc2nc(CCc3cccc([N+](=O)[O-])c3)nc3cc(N4CCN(C)CC4)ccc23)n[nH]1 — IC50 (Aurora kinase A (AURKA, Homo sapiens, UniProt O14965); kinase activity, inhibitor): 0.006 µM
OC[C@H](OCc1ccccc1Cl)[C@H](O)C[S@@+]1C[C@@H](O)[C@H](O)[C@H]1CO — IC50 (Si; sucrase activity, inhibitor; rat intestinal disaccharidases): 0.09 µM
N#Cc1ccc(N(Cc2ccc(OS(N)(=O)=O)c(F)c2)n2cnnc2)cc1 — IC50 (Aromatase (CYP19A1, Homo sapiens, UniProt P11511); enzyme activity, inhibitor; JEG-3): 0.01 to 0.1 µM
